Published values of several laboratories.
Every numbered part comes from another study and shows a few of its results, in no order. “And” joins repeats or separate records; there may be more than shown.
UniProt P10632, sequence (whole entry, looked up): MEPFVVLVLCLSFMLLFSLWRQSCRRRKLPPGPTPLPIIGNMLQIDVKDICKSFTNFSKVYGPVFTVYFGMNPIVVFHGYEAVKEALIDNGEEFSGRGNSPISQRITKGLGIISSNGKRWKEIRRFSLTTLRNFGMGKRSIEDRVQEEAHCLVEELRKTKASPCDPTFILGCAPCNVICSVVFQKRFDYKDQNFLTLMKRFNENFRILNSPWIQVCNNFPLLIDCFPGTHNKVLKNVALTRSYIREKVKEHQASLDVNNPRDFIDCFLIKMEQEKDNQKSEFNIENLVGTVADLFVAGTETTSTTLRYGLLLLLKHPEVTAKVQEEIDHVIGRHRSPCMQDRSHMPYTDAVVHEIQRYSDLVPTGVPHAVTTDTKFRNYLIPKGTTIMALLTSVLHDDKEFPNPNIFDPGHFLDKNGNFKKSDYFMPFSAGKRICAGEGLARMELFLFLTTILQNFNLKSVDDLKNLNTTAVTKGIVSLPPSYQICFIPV
UniProt P20813, sequence (whole entry, looked up): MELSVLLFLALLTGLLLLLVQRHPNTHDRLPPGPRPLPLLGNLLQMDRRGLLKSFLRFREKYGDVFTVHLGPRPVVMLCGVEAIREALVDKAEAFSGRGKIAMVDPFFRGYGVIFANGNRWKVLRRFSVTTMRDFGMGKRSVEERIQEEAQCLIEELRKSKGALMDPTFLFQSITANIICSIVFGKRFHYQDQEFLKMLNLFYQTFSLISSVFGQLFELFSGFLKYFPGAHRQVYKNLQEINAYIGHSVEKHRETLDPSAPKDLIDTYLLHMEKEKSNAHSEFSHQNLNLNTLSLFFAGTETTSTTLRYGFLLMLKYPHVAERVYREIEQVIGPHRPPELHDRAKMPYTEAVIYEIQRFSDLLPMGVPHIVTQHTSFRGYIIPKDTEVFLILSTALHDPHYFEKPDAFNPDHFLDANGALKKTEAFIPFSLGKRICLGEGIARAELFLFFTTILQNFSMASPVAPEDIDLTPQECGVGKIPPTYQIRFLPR
UniProt P10635, sequence (whole entry, looked up): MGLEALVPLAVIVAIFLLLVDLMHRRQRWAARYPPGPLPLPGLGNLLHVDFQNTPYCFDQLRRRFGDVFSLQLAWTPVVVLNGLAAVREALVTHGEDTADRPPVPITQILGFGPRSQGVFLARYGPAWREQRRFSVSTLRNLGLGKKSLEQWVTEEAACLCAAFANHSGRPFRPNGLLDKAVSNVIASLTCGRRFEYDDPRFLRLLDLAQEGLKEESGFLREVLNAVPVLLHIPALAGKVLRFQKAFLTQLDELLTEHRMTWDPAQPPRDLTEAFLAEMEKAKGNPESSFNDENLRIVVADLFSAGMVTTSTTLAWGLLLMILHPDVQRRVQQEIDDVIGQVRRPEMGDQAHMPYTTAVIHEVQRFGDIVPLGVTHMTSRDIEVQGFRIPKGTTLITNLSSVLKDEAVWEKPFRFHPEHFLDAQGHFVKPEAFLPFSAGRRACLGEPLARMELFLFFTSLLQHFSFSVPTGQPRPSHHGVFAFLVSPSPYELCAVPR
UniProt Q06187, sequence (whole entry, looked up): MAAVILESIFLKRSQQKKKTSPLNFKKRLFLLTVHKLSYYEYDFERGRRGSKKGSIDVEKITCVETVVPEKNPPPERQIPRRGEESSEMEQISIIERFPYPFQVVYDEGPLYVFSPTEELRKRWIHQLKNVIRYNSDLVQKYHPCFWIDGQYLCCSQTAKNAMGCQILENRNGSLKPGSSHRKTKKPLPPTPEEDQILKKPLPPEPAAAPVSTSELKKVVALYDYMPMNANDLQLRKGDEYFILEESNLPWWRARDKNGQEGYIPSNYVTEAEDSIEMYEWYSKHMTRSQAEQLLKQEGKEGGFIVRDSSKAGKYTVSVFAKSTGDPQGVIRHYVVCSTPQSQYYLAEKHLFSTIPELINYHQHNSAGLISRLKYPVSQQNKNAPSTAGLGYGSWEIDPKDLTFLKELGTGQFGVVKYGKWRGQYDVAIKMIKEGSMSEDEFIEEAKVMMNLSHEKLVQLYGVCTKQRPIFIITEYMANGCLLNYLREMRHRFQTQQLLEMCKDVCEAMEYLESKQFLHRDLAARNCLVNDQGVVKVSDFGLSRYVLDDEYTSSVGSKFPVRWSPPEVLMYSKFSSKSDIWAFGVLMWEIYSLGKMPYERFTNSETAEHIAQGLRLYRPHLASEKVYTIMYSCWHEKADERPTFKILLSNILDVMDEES

Block 1 — route: intravenous
Structure (SMILES): Cc1ncsc1-c1ccc(C(CO)NC(=O)C2CC(O)CN2C(=O)C(C(C)C)n2cc(-c3ccc(COc4c(-c5c(C)c(F)cc6[nH]ncc56)c(C5CC5)cc5c(N6CC7CC6CN7)nc(OC6CCOCC6)nc45)cc3)nn2)cc1 (stereo not drawn)
The concentration was 311 ng/g and 303 ng/g (male Balb/c nu/nu mouse, PK-59 xenograft, pancreas; 30 mg/kg, 24 h).
For male Balb/c nu/nu mouse, PK-59 xenograft, tumor; 30 mg/kg, 6 h: concentration read 1540 ng/g and 420 ng/g and 1120 ng/g.
male Balb/c nu/nu mouse (PK-59 xenograft), tumor; 30 mg/kg, 2 h — concentration: 1260 ng/g.
male Balb/c nu/nu mouse, PK-59 xenograft, tumor; 30 mg/kg, 24 h — concentration: 1180 ng/g and 1370 ng/g.
male Balb/c nu/nu mouse (PK-59 xenograft), plasma; 30 mg/kg, 2 h — concentration: 9530 ng/mL.
It gave 239 ng/mL for concentration (male Balb/c nu/nu mouse (PK-59 xenograft), plasma; 10 mg/kg, 6 h).
mouse (PK-59 xenograft), plasma; 10 mg/kg, 72 h — concentration: 3.25 ng/mL and 3.91 ng/mL.
mouse, PK-59 xenograft, tumor; 10 mg/kg, 144 h — concentration: 77 ng/g and 113 ng/g and 171 ng/g.

Block 2 — mode: inhibitor
SMILES: NC/C(=C\F)COc1cccc(Cn2c(=S)[nH]c(=O)c3[nH]cnc32)c1
CYP3A4: Cytochrome P450 3A4 (CYP3A4, Homo sapiens, UniProt P08684)
UniProt P08684, sequence (whole entry, looked up): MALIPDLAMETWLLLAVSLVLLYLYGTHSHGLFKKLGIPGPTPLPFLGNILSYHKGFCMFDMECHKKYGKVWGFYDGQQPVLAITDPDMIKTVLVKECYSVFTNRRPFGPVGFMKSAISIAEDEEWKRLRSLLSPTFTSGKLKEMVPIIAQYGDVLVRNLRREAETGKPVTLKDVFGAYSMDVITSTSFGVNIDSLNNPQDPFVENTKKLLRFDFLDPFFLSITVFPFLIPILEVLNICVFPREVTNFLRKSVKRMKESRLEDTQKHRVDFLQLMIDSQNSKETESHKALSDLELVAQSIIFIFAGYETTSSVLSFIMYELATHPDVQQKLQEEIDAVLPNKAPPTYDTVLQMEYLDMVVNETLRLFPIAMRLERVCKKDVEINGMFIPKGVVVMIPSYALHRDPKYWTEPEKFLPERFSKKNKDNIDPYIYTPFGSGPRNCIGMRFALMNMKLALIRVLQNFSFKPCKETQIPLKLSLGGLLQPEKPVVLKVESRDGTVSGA
CYP2C19: Cytochrome P450 2C19 (CYP2C19, Homo sapiens, UniProt P33261)
UniProt P33261, sequence (whole entry, looked up): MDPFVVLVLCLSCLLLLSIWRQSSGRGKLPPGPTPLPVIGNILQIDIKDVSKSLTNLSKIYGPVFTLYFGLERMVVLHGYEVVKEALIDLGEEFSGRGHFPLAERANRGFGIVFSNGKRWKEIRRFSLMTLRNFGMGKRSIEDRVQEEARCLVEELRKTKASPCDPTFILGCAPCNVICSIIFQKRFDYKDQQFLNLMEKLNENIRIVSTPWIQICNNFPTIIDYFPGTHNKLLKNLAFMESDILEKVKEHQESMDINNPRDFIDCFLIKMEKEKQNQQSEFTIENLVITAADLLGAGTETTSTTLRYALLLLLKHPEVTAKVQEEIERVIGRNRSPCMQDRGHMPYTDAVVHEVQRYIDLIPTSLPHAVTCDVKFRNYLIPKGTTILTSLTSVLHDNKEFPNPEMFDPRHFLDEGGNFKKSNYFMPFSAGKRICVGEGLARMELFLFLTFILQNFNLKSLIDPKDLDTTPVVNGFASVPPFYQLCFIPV
Cytochrome P450 2B6 (CYP2B6, Homo sapiens, UniProt P20813); 0.37 µM — remaining activity: 88.2% and 76.8%.
The remaining activity was 99.7% (CYP3A4; enzyme activity; 0.37 µM, CYP3A4-MID substrate).
The remaining activity was 70.1% and 77.1% (Cytochrome P450 2D6 (CYP2D6, Homo sapiens, UniProt P10635); 30 µM).
For CYP2C19; 0.37 µM: remaining activity read 98.6% and 122%.
CYP2C19; 3.33 µM — remaining activity: 67.3% and 107%.
The remaining activity was 20.9% (CYP3A4; enzyme activity; 30 µM, CYP3A4-MID substrate).
The remaining activity was 37.6% and 35.1% (Cytochrome P450 2C8 (CYP2C8, Homo sapiens, UniProt P10632); 30 µM).
CYP3A4; enzyme activity; 3.33 µM — remaining activity: 74.8%.

Mixed results
For `CN(C1COC1)C(C)(C)/C=C(\C#N)C(=O)N1CCC[C@H]1Cn1nc(-c2ccc(Oc3ccccc3)cc2F)c2c(N)ncnc21`, the KI (inactivation) was 11 nM (Tyrosine-protein kinase BTK (BTK, Homo sapiens, UniProt Q06187); enzyme activity, inhibitor).
With `CC[C@@]1(c2cccc(C(F)(F)F)c2)C2=C(Nc3n[nH]cc31)[C@H](F)C(C)(C)CC2=O` (single isomer, unassigned) the fu was 0.0184 (mouse plasma; 4 h).

Excerpt of the above (block 1):
male Balb/c nu/nu mouse (PK-59 xenograft), plasma; 30 mg/kg, 2 h — concentration: 9530 ng/mL.
mouse (PK-59 xenograft), plasma; 10 mg/kg, 72 h — concentration: 3.25 ng/mL and 3.91 ng/mL.
